Experimental data gathered from unrelated publications.
Each line is one published result; not all experiments were run side by side.
Target: Amine oxidase [flavin-containing] B (MAOB, Homo sapiens, UniProt P27338)
Chain of UniProt P27338 (whole entry, looked up): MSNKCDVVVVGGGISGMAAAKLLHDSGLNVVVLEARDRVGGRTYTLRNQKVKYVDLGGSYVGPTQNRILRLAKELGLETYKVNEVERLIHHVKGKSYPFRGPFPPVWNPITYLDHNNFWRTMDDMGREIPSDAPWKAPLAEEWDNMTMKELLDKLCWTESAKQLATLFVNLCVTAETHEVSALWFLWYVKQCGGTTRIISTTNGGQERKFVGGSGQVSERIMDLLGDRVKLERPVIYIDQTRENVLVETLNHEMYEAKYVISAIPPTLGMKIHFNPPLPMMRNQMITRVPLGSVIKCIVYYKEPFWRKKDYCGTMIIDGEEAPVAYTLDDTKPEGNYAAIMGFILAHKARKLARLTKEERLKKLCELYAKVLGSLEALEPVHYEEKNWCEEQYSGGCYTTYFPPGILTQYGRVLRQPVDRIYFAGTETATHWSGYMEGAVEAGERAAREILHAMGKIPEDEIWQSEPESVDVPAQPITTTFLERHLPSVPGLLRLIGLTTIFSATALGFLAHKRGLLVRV
Read-out: enzyme activity
Mode: inhibitor
Concentration: 10 µM

O=C1c2ccccc2N(Cc2ccccc2)C12CCCC2  remaining activity: 61.3%
CNC(=S)N/N=C/c1ccc(OCc2cccc(F)c2)cc1  remaining activity (absorbance): 16.6%
O=C(/C=C/c1ccc(F)cc1)c1cc2ccccc2oc1=O  remaining activity: 30.8%
O=C1c2ccccc2N(Cc2cccc(Cl)c2)C12CCCC2  remaining activity: -3.28%
CNC(=S)N/N=C/c1ccc(OCc2ccccc2)cc1  remaining activity (absorbance): 3.81%
O=C1c2ccccc2N(Cc2cccc(Br)c2)C12CCCC2  remaining activity: 11%
O=C(/C=C/c1ccc(Br)cc1)c1ccc(N2CCNCC2)cc1  remaining activity: 26.9%
O=C(/C=C/c1ccccc1)c1cc2ccccc2oc1=O  remaining activity: 10.4%
O=C1c2ccccc2N(Cc2ccc(F)cc2)C12CCCC2  remaining activity: 57%
O=C(/C=C/c1ccc(O)cc1)c1ccc(N2CCNCC2)cc1  remaining activity: 13.3%
O=C(/C=C/c1cccc(Cl)c1)c1cc2ccccc2oc1=O  remaining activity: 34.9%
O=C1c2cc(F)ccc2N(Cc2ccccc2)C12CCCC2  remaining activity: 43.6%
NC(=O)N/N=C/c1ccc(OCc2cccc(F)c2)cc1  remaining activity (absorbance): 3.57%
O=C(/C=C/c1cccc(F)c1)c1cc2ccccc2oc1=O  remaining activity: 39.3%
S=C(N/N=C/c1ccc(OCc2ccccc2)cc1)Nc1ccccc1  remaining activity (absorbance): 38.1%
O=C(/C=C/c1ccc(F)cc1)c1ccc(N2CCNCC2)cc1  remaining activity: 9.91%
NC(=S)N/N=C/c1ccc(OCc2cccc(F)c2)cc1  remaining activity (absorbance): -10.2%
O=C(/C=C/c1ccccc1F)c1cc2ccccc2oc1=O  remaining activity: 37.7%
O=C(/C=C/c1ccc(C(F)(F)F)cc1)c1ccc(N2CCNCC2)cc1  remaining activity: 10.4%
S=C(N/N=C/c1ccccc1OCc1ccccc1)Nc1ccccc1  remaining activity (absorbance): 64.3%

Some of these lines once more:
O=C(/C=C/c1ccc(F)cc1)c1cc2ccccc2oc1=O  remaining activity: 30.8%
O=C1c2ccccc2N(Cc2cccc(Cl)c2)C12CCCC2  remaining activity: -3.28%
CNC(=S)N/N=C/c1ccc(OCc2ccccc2)cc1  remaining activity (absorbance): 3.81%
